Assay results pooled from the literature.
Each line is one published result; not all experiments were run side by side. Values joined by “and” are separate records of one study, mostly repeats; a detail may differ. ± gives the spread as reported.

SMILES	cell line	test	conditions	how to read	endpoint	result
Cn1cc(-c2ccc(-c3cncc(Cl)c3N3CCC4(CCNC4=O)CC3)cc2)cn1	COLO 205	microarray, refers to: PAH	concentration not given, 6 h	relative to: untreated cells	fold change in expression	-2.41
NC(=O)c1ccc(I)c([N+](=O)[O-])c1	HBL-1		0.5 µM, 120 h		viability	124%
O=c1ncn2nc(Sc3ccc(F)cc3F)ccc2c1-c1c(Cl)cccc1Cl	iCell cardiomyocytes hiPSC-derived	impedance	concentration not given, 2 h	relative to: vehicle	beat amplitude	94.1%
COc1cnc2cccc(N3CCc4c(cc(Cn5ccnc5C)cc4-c4cn(C)nc4C(F)(F)F)C3=O)c2c1	Huh-7	cell growth, inhibitor	120 h		EC50	4.69 µM
Cl.Cl.O=S(=O)(NCCNC/C=C/c1ccc(Br)cc1)c1cccc2cnccc12	HeLa expressing Ub(G76V)-GFP	Ub(G76V)-GFP degradation, cycloheximide chase	12 µM		inhibition	21%
C[C@]12O[C@H](C[C@]1(O)CO)n1c3ccccc3c3c4c(c5c6ccccc6n2c5c31)CNC4=O	HBL-1		0.5 µM, 120 h		viability	5.27%
CCCCCCCCCCCCCCCC[N+](C)(C)C	BT-12	cell viability, MTT	10 µM, 72 h		inhibition	91.6%
COc1ccc(NC(=S)N/N=C/c2cccc3cc4ccccc4nc23)cc1	HeLa	PI flow cytometry	IC12.5, 48 h, together with: N-acetylcysteine		G2/M phase cells	13.5 ± 3.1%
Cc1c(C)c2c(c(C)c1O)CCC(C)(COc1ccc(CC3SC(=O)NC3=O)cc1)O2 (centres unmarked)	HepG2	mitochondrial ROS	1 h		representative mode point of departure	0.0741 µM
O=C(O)c1ccc(O)c2ncccc12	HBL-1		0.5 µM, 120 h		viability	122%
CC(=O)Nc1cccc(-n2c(=O)n(C3CC3)c(=O)c3c(Nc4ccc(I)cc4F)n(C)c(=O)c(C)c32)c1	COLO 205	cell viability, resazurin	6.25 nM, 72 h	relative to: DMSO	fractional effect	0.891 and 0.897
CCN1/C(=C/C(C)=O)Sc2ccc(OC)cc21	HeLa expressing Ub(G76V)-GFP	Ub(G76V)-GFP degradation, cycloheximide chase	12 µM		inhibition	25%
CCCOc1ccn2c(C(C)=O)cc(-c3ccccc3S(C)(=O)=O)c2c1	HBL-1		0.5 µM, 120 h		viability	113%
CN(C)C/C=C/C(=O)Nc1cc2c(Nc3ccc(F)c(Cl)c3)ncnc2cc1O[C@H]1CCOC1	BT-12	cell viability, MTT	10 µM, 72 h		inhibition	85.8%
N#C/C(=C\c1ccc(-c2cc(Cl)ccc2Cl)o1)C(=O)Nc1cccc2ncccc12	HBL-1		1 µM, 120 h		viability	98.9%
Cc1cccc(-c2[nH]c(CNc3ccccc3F)nc2-c2ccc3ncnn3c2)n1	bone marrow CD138+ myeloma cells	XTT	0.2 µM, mean of three patients		viability	98%
COc1cccc(-c2cc(=O)c3ccccc3o2)c1N	HeLa expressing Ub(G76V)-GFP	Ub(G76V)-GFP degradation, cycloheximide chase	12 µM		inhibition	34%
Clc1ccc(N/N=C(\c2ccccc2)c2ccccn2)nc1	CD326+ cells	annexin V flow cytometry	0.25 µM, 24 h		apoptotic cells	~40%
Cc1cc(NS(=O)(=O)c2ccc(NC(=O)/C(C#N)=C/c3ccc(N4CCCCC4)cc3)cc2)no1	HCT-116	qRT-PCR, refers to: CDH1	concentration not given	relative to: untreated	mRNA level decrease	4.32 times
CCOC(=O)CCNc1cc(N2CCc3ccccc3CC2)nc(-c2cccnc2)n1	HBL-1		0.1 µM, 120 h		viability	111%
CC(C)NCC(O)c1ccc(O)c(O)c1 (centres unmarked)	mouse ventricular cardiomyocytes		dose not given, 0.131 s		sarcomere length	1.61 µm
O=C(O)CCCc1ccccc1	HBL-1		0.1 µM, 120 h		viability	122%
O=C(O)CC[C@H](NC(=O)N[C@@H](CCCCNC(=O)CCCCCCC(=O)NCCCC[C@@H](NC(=O)[C@H](CCC(=O)O)NC(=O)[C@H](CCC(=O)O)NC(=O)CCC(=O)NCCCN1CC[S][Tc]2(=[O])[S]CC[N]2CC1)C(=O)O)C(=O)O)C(=O)O (some centres unmarked) [technetium-99m labelled]	LNCaP		25 nM, 1 h, 37 °C		surface-bound activity	4.54 ± 0.15 %AD/mg protein

Excerpt of the above:
SMILES	cell line	test	conditions	how to read	endpoint	result
CCCOc1ccn2c(C(C)=O)cc(-c3ccccc3S(C)(=O)=O)c2c1	HBL-1		0.5 µM, 120 h		viability	113%
COc1ccc(NC(=S)N/N=C/c2cccc3cc4ccccc4nc23)cc1	HeLa	PI flow cytometry	IC12.5, 48 h, together with: N-acetylcysteine		G2/M phase cells	13.5 ± 3.1%
CN(C)C/C=C/C(=O)Nc1cc2c(Nc3ccc(F)c(Cl)c3)ncnc2cc1O[C@H]1CCOC1	BT-12	cell viability, MTT	10 µM, 72 h		inhibition	85.8%
